Measured values collected from several papers.
Protocols differ between the studies behind these lines. ± marks the error that the study gave.
Method: steady-state kinetics
B1: enzyme S446A (Methanosarcina mazei, UniProt Q8PVB1); chain MSEQRSVPLREHLLALKPCRHGGLIQETSETYGIPENEILDFSANFNPLGSPFDYPENGLNFEDIIKKSCGKLLEYPDNRYVEFREAAARFVGLGVTPQSIVPGNGSTEIVRLVVESVIEKGDKVLLPWPTFGEYEMQCRITGAEPVCPSQEEVNTLPDEVLEEAKILFICNPNNPTGKLRTREELKVLAERCREHKTLLYVDEAFIELSDPSQSVADLPAENNYVFVMRSLTKDFAIPGIRMGFGIAPPAMADILNTARLSWNLGAIANNTGIALLNIEGGIDSPYLKKAREMILKEGETLKAKIDRIRGFEAGEVNVNFILVDVSKFMLNSSELTARLAARGVLVRDCVSFHGLGKNYIRVAVRTEKENDRLIAAIGDVITEWGREQAKNELQHVIEKASEEGIGGRKTCEYYPCHFEGQNCTFCFCPFYPCENEKTGGKWIQASRGGRVWSCVDCHLVHKKEIAQKILDCLMHEGDTDELVKVAWKEVMEPIL
B2: LYS1 C205S/K77M (Saccharomyces cerevisiae, UniProt P38998); chain MAAVTLHLRAETKPLEARAALTPTTVKKLIAKGFKIYVEDSPQSTFNINEYRQAGAIIVPAGSWKTAPRDRIIIGLMEMPETDTFPLVHEHIQFAHCYKDQAGWQNVLMRFIKGHGTLYDLEFLENDQGRRVAAFGFYAGFAGAALGVRDWAFKQTHSDDEDLPAVSPYPNEKALVKDVTKDYKEALATGARKPTVLIIGALGRSGSGAIDLLHKVGIPDANILKWDIKETSRGGPFDEIPQADIFINCIYLSKPIAPFTNMEKLNNPNRRLRTVVDVSADTTNPHNPIPIYTVATVFNKPTVLVPTTAGPKLSVISIDHLPSLLPREASEFFSHDLLPSLELLPQRKTAPVWVRAKKLFDRHCARVKRSSRL
B3: Por W677A (Rattus norvegicus, UniProt P00388); chain GDSHEDTSATMPEAVAEEVSLFSTTDMVLFSLIVGVLTYWFIFRKKKEEIPEFSKIQTTAPPVKESSFVEKMKKTGRNIIVFYGSQTGTAEEFANRLSKDAHRYGMRGMSADPEEYDLADLSSLPEIDKSLVVFCMATYGEGDPTDNAQDFYDWLQETDVDLTGVKFAVFGLGNKTYEHFNAMGKYVDQRLEQLGAQRIFELGLGDDDGNLEEDFITWREQFWPAVCEFFGVEATGEESSIRQYELVVHEDMDVAKVYTGEMGRLKSYENQKPPFDAKNPFLAAVTANRKLNQGTERHLMHLELDISDSKIRYESGDHVAVYPANDSALVNQIGEILGADLDVIMSLNNLDEESNKKHPFPCPTTYRTALTYYLDITNPPRTNVLYELAQYASEPSEQEHLHKMASSSGEGKELYLSWVVEARRHILAILQDYPSLRPPIDHLCELLPRLQARYYSIASSSKVHPNSVHICAVAVEYEAKSGRVNKGVATSWLRAKEPAGENGGRALVPMFVRKSQFRLPFKSTTPVIMVGPGTGIAPFMGFIQERAWLREQGKEVGETLLYYGCRRSDEDYLYREELARFHKDGALTQLNVAFSREQAHKVYVQHLLKRDREHLWKLIHEGGAHIYVCGDARNMAKDVQNTFYDIVAEFGPMEHTQAVDYVKKLMTKGRYSLDVAS
B4: enzyme (Roseiflexus castenholzii, UniProt A7NLX0); chain MKIESITLHHIDMPLVAPFETSFGRETHRPCILIEMRADGLTGWGECVAGAGPWYAYETIGTAWHIISDFLAPMIVGQEITEPIGIVERFASVRGHPMARAAVEAAFWDLYAQARGVSLARLIGATRDRVTVGVSVGIELTLEAQLASIERFVAAGYARIKLKIKPGWDVAVVRAVRERWPDIALQVDANSAYTPDDAPIFRELDEMNLLLIEQPLHHDDIVDHARLQAQISTPICLDESIHSPEHARWALDIDACRVINIKIGRVGGLTAARQIHDLCAERGVPVWCGGMLETNVGRAVNLALAALPNFALPGDISASARYYHRDIAAPDFVLNDDSTITVPDTPGTGVAVLPERLRDVQVREVIIGKG
B5: RABH1B (Arabidopsis thaliana, UniProt O80501); chain MAPVSALAKYKLVFLGDQSVGKTSIITRFMYDKFDNTYQATIGIDFLSKTMYLEDRTVRLQLWDTAGQERFRSLIPSYIRDSSVAVIVYDVASRQSFLNTTKWIDEVRTERGSDVIVVLVGNKTDLVDKRQVSIEEAEAKARELNVMFIETSAKAGFNIKALFRKIAAALPGMETLSSTKQEDMVDVNLKSSNANASLAQQQSGGCSC
B6: enzyme Y136L/Y168I (Bradyrhizobium diazoefficiens, UniProt Q45222); chain MIQTERAVQQVLEWGRSLTGFADEHAVEAVRGGQYILQRIHPSLRGTSARTGRDPQDETLIVTFYRELALLFWLDDCNDLGLISPEQLAAVEQALGQGVPCALPGFEGCAVLRASLATLAYDRRDYAQLLDDTRCLSAALRAGHAQAVAAERWSYAEYLHNGIDSIAIANVFCCLSLLWGLDMATLRARPAFRQVLRLISAIGRLQNDLHGCDKDRSAGEADNAVILLLQRYPAMPVVEFLNDELAGHTRMLHRVMAEERFPAPWGPLIEAMAAIRVQYYRTSTSRYRSDAVRGGQRAPA
B7: enzyme (Methylibium petroleiphilum, UniProt A2SL37); chain PIIQMNLLEGRTVEQKRNAVAAITEAVVRTLDVRPDQVRILINELGVEHFSVAGQTAAMRQAAAANAKDL
B8: enzyme (UniProt P0DY30); chain ESPWIGVHFMVYTDKMLDQLAEQLPALSKRGVTHLILEINYHFAYKSHPELAPTNGITVVGAKKFADTARAHHIEIIPQINCLGHQSWKQNNAALLKHYPQFDETPGAYPDNKDIYCRSWCPQHPEVNRVVFALIDELIDAFEAKAFHVGMDEVFLIASEHCERCRGGDPAALFAKAVNDLHGHIVGKRGVQMLMWGDRLLDAEQTGYGKWEASGNGTAPAIDRIPKDIVLCDWHYEKRDRYPSLAVFLDKGFRVWPAGWKKPEAAEAFAAAARGCQNPRLLGYLCTTWGAVEIPNLADWPALLRPIEKIIAP
B9: enzyme Y157F (Mus musculus, UniProt P60334); chain MERTELLKPRTLADLIRILHELFAGDEVNVEEVQAVLEAYESNPAEWALYAKFDQYRYTRNLVDQGNGKFNLMILCWGEGHGSSIHDHTDSHCFLKLLQGNLKETLFDWPDKKSNEMIKKSERTLRENQCAYINDSIGLHRVENVSHTEPAVSLHLFSPPFDTCHAFDQRTGHKNKVTMTFHSKFGIRTPFTTSGSLENN
B10: spt (Sphingomonas paucimobilis, UniProt Q93UV0); chain TEAAAQPHALPADAPDIAPERDLLSKFDGLIAERQKLLDSGVTDPFAIVMEQVKSPTEAVIRGKDTILLGTYNYMGMTFDPDVIAAGKEALEKFGSGTNGSRMLNGTFHDHMEVEQALRDFYGTTGAIVFSTGYMANLGIISTLAGKGEYVILDADSHASIYDGCQQGNAEIVRFRHNSVEDLDKRLGRLPKEPAKLVVLEGVYSMLGDIAPLKEMVAVAKKHGAMVLVDEAHSMGFFGPNGRGVYEAQGLEGQIDFVVGTFSKSVGTVGGFVVSNHPKFEAVRLACRPYIFTASLPPSVVATATTSIRKLMTAHEKRERLWSNARALHGGLKAMGFRLGTETCDSAIVAVMLEDQEQAAMMWQALLDGGLYVNMARPPATPAGTFLLRCSICAEHTPAQIQTVLGMFQAAGRAVGVIG
Sequence of UniProt P09546 (whole entry, looked up): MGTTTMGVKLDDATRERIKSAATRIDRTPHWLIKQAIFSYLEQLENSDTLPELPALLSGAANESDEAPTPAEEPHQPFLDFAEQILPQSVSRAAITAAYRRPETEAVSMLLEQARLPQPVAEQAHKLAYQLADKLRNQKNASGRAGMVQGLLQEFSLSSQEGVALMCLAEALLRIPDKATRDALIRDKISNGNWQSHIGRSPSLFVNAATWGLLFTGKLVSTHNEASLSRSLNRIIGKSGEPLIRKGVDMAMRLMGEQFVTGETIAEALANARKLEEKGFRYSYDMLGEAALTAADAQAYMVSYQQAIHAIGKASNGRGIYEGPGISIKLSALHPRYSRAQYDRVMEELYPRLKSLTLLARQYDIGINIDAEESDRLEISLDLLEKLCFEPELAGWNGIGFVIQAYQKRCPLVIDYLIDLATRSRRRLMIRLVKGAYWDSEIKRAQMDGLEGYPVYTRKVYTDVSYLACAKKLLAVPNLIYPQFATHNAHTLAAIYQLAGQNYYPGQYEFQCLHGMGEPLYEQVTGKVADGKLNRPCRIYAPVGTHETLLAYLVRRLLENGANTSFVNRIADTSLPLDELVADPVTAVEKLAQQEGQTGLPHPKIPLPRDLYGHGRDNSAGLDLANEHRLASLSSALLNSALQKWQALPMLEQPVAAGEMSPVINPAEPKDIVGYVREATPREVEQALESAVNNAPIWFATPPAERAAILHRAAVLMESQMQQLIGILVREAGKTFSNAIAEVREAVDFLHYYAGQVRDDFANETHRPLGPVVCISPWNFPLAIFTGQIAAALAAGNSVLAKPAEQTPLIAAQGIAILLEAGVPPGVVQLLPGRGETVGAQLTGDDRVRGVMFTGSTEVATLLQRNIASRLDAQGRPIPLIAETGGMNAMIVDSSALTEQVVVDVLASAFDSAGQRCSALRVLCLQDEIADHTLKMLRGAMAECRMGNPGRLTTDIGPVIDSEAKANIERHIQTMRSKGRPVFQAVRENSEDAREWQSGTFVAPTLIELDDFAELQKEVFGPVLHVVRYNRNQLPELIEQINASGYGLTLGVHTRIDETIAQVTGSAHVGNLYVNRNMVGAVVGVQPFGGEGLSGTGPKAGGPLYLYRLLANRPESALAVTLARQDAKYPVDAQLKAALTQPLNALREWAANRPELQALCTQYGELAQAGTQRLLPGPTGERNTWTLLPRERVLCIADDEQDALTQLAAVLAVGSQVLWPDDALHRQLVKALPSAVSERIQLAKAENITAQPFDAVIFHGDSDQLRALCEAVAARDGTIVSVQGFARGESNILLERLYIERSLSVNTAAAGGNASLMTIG
Sequence of UniProt P00327 (whole entry, looked up): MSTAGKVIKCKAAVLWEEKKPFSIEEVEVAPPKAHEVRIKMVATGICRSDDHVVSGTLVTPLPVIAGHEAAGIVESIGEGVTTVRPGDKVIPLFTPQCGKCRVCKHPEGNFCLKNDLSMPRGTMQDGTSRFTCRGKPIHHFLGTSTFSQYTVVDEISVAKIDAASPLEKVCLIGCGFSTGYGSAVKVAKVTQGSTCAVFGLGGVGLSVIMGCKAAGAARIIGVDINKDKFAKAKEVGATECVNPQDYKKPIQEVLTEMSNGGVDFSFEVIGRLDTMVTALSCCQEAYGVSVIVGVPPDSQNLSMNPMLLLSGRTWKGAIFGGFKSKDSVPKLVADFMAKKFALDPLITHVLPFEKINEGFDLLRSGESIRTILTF
Sequence of UniProt P78804 (whole entry, looked up): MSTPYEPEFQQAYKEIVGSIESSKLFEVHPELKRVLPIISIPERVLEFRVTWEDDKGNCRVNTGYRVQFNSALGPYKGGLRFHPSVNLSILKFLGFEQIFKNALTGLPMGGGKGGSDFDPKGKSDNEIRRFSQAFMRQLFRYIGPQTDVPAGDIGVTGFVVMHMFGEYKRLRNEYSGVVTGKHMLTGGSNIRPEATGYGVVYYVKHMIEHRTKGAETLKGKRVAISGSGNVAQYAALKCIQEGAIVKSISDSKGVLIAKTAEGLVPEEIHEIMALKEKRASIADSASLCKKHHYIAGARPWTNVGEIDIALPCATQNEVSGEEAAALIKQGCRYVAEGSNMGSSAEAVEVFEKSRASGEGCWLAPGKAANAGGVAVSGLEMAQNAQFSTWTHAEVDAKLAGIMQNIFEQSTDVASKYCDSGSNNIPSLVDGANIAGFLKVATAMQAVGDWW

Substance | substrate | conditions | kcat [s⁻¹]
B1 (enzyme S446A) | Nc1ncnc2c1ncn2[C@@H]1O[C@H](COP(=O)(O)OP(=O)(O)OP(=O)(O)O)[C@@H](O)[C@H]1O | pH 8.5, 25 °C, apparent, anoxic, with: L-Thr 10 mM | 0.009 ± 0.001
enzyme (Schizosaccharomyces pombe, UniProt P78804) | NC(=O)c1ccc[n+]([C@@H]2O[C@H](COP(=O)(O)OP(=O)(O)OC[C@H]3O[C@@H](n4cnc5c(N)ncnc54)[C@H](O)[C@@H]3O)[C@@H](O)[C@H]2O)c1 | pH 7, 30 °C, apparent | 0.0073 ± 0.0003
B2 (LYS1 C205S/K77M) | NCCCC[C@H](N)C(=O)O | pH 7, 25 °C, with: NADH 0.5 mM | 0.73 ± 0.02
enzyme (Acinetobacter baumannii, UniProt A0A5P1UDB1) | O=C(O)c1cccc(O)c1O | pH 7.5, 37 °C, apparent | 0.0195 ± 0.0008
enzyme N248Y/Q325R/R246H/R328K/S219F (Arabidopsis thaliana, UniProt O24495) | C[C@@H](O)C(=O)SC[C@H](NC(=O)CC[C@H](N)C(=O)O)C(=O)NCC(=O)O | pH 7.2, 25 °C | 16 ± 1
B3 (Por W677A) | NC(=O)C1=CN([C@@H]2O[C@H](COP(=O)(O)OP(=O)(O)OC[C@H]3O[C@@H](n4cnc5c(N)ncnc54)[C@H](O)[C@@H]3O)[C@@H](O)[C@H]2O)C=CC1 | with: cytochrome c | 38.9 ± 9.33
B4 (enzyme) | O=C(O)CCC(=O)C1=CC=C[C@@H](O)[C@@H]1C(=O)O | pH 8, 25 °C | 55 ± 2
enzyme (UniProt A0A097IUD8) | C=C(OP(=O)(O)O)C(=O)O | pH 6, 25 °C, with: 2 mM ADP | 31.7 ± 1
B5 (RABH1B) | Nc1nc2c(ncn2[C@@H]2O[C@H](COP(=O)(O)OP(=O)(O)OP(=O)(O)O)[C@@H](O)[C@H]2O)c(=O)[nH]1 | pH 7.5, 30 °C | 0.04
gdh N192L (Bacillus subtilis) | NC(=O)c1ccc[n+]([C@@H]2O[C@H](COP(=O)(O)OP(=O)(O)OC[C@H]3O[C@@H](n4cnc5c(N)ncnc54)[C@H](O)[C@@H]3O)[C@@H](O)[C@H]2O)c1 | pH 7, 40 °C | 18.9 ± 0.851
enzyme (Mycobacteroides abscessus, UniProt B1MGE0) | C/C(=C\C=C(/O)C(=O)O)C(=O)CC[C@@H]1C(=O)CC[C@]2(C)C(=O)CC[C@@H]12 | pH 7.5, 25 °C | 9
B6 (enzyme Y136L/Y168I) | C=C1CC[C@@H]2C(C)(C)CCC[C@@]2(C)[C@@H]1CC/C(C)=C/COP(=O)(O)OP(=O)(O)O | – | 0.09 ± 0.00433
rCR (Lodderomyces parapsilosis, UniProt A1X808) | O=C(CO)c1ccccc1 | pH 7, 30 °C | 7.19 ± 0.31
B7 (enzyme) | C/C(=C\C=C(/O)C(=O)O)C(=O)O | pH 7.3, 24 °C | 3.4 ± 0.1
enzyme (Equus caballus, UniProt P00327) | NC(=O)c1ccc[n+]([C@@H]2O[C@H](COP(=O)(O)OP(=O)(O)OC[C@H]3O[C@@H](n4cnc5c(N)ncnc54)[C@H](O)[C@@H]3O)[C@@H](O)[C@H]2O)c1 | pH 7, 30 °C, cofactor varied | 0.089 ± 0.0098
B8 (enzyme) | CC(=O)N[C@H]1[C@H](Oc2ccc([N+](=O)[O-])cc2)O[C@H](CO)[C@@H](O)[C@@H]1O[C@@H]1O[C@H](CO)[C@H](O)[C@H](O)[C@H]1O | pH 6, 50 °C | 4.6 ± 0.25
enzyme (UniProt F0RRL2) | O=P(O)(O)O[C@H]1O[C@H](CO)[C@@H](O)[C@H](O)[C@H]1O | pH 5.5, 37 °C, apparent | 16.9 ± 1.2
B9 (enzyme Y157F) | N[C@@H](CS)C(=O)O | pH 7.5, 37 °C | > 0.41
putA (Escherichia coli, UniProt P09546) | CC1=C(C)C(=O)C(C)=C(C)C1=O | pH 7.4, 20 °C, with: proline 200 mM | 1.2 ± 0.1
B10 (spt) | CCCCCCCCCCCCCC(=O)SCCNC(=O)CCNC(=O)[C@H](O)C(C)(C)COP(=O)(O)OP(=O)(O)OC[C@H]1O[C@@H](n2cnc3c(N)ncnc32)[C@H](O)[C@@H]1OP(=O)(O)O | with: PLP | 0.76 ± 0.03

For quick reference, copied from above:
Substance | substrate | conditions | kcat [s⁻¹]
B2 (LYS1 C205S/K77M) | NCCCC[C@H](N)C(=O)O | pH 7, 25 °C, with: NADH 0.5 mM | 0.73 ± 0.02
enzyme (Mycobacteroides abscessus, UniProt B1MGE0) | C/C(=C\C=C(/O)C(=O)O)C(=O)CC[C@@H]1C(=O)CC[C@]2(C)C(=O)CC[C@@H]12 | pH 7.5, 25 °C | 9
enzyme (Acinetobacter baumannii, UniProt A0A5P1UDB1) | O=C(O)c1cccc(O)c1O | pH 7.5, 37 °C, apparent | 0.0195 ± 0.0008
